Assay results from different studies.
Compare with care: the assays were run in different laboratories. Numbers after ± are the reported error. In brackets after ≈: the same amount, converted by molar mass.
Organism: Klebsiella pneumoniae

SMILES | test | system | conditions | scale | measurement | result
C[C@@](O)(C(F)F)[C@H](NC(=O)c1ccc(C#CC#CC2CC2)cc1)C(=O)NO | – | 10031 | – | – | MIC after serial passage | 1 to 2 µg/mL (≈ 2.66 to 5.31 µM)
COc1ccc(-c2ccn(CC[C@](C)(C(=O)NO)S(C)(=O)=O)c(=O)c2)c(F)c1 | – | KP-1487 FabZ P22S, neutropenic mice, thigh infection | dose not given, 24 h | – | AUC/MIC for 1-log kill | 3.45 ± 2.11
CN(C)S(=O)(=O)c1ccc(S(=O)(=O)N2CCC(n3c(=O)[nH]c4ccccc43)CC2)cc1 | survival under NO stress | DOU | 4 h, added: NOC-5 14 µM | – | IC50 | 78.8 µM
CCCCCC(=O)NCC(=O)N[C@@H](CC(C)C)C(=O)N[C@@H](CC(C)C)C(=O)N[C@@H](CCCCN)C(=O)N[C@@H](CCCNC(=N)N)C(=O)N[C@H](C(=O)N[C@@H](CCCCN)C(=O)N[C@H](C(=O)N[C@@H](CC(C)C)C(=O)N[C@@H](CC(C)C)C(=O)NCCCC[C@H](NC(=O)[C@H](CCCCNC(=O)[C@H](CC(C)C)NC(=O)[C@H](CC(C)C)NC(=O)[C@@H](NC(=O)[C@H](CCCCN)NC(=O)[C@@H](NC(=O)[C@H](CCCNC(=N)N)NC(=O)[C@H](CCCCN)NC(=O)[C@H](CC(C)C)NC(=O)[C@H](CC(C)C)NC(=O)CNC(=O)CCCCC)[C@@H](C)CC)[C@@H](C)O)NC(=O)[C@H](CC(C)C)NC(=O)[C@H](CC(C)C)NC(=O)[C@@H](NC(=O)[C@H](CCCCN)NC(=O)[C@@H](NC(=O)[C@H](CCCNC(=N)N)NC(=O)[C@H](CCCCN)NC(=O)[C@H](CC(C)C)NC(=O)[C@H](CC(C)C)NC(=O)CNC(=O)CCCCC)[C@@H](C)CC)[C@@H](C)O)C(N)=O)[C@@H](C)O)[C@@H](C)CC | checkerboard | ATCC 700603 | added: rifampicin | – | FIC index | 0.125
COc1ccc2ccc3c(c2c1)C=[N+]1C2CCCCC2[N+]2=Cc4cc(C(C)(C)C)cc(C(C)(C)C)c4[O][Au-]21[O]3.F[P-](F)(F)(F)(F)F (stereo not shown) | bacterial growth, broth microdilution | carbapenem-resistant | 24 h | – | MIC | > 20 µM
Oc1ccc(Cl)cc1-c1nc2c(C(F)(F)F)cc(C(F)(F)F)cc2[nH]1 | colistin potentiator | B9 | 5 µM | – | MIC of colistin | 0.25 µg/mL
CCCC(=O)NCC(=O)N[C@@H](CC(C)C)C(=O)N[C@@H](CC(C)C)C(=O)N[C@@H](CCCCN)C(=O)N[C@@H](CCCNC(=N)N)C(=O)N[C@H](C(=O)N[C@@H](CCCCN)C(=O)N[C@H](C(=O)N[C@@H](CC(C)C)C(=O)N[C@@H](CC(C)C)C(=O)NCCCC[C@H](NC(=O)[C@H](CC(C)C)NC(=O)[C@H](CC(C)C)NC(=O)[C@@H](NC(=O)[C@H](CCCCN)NC(=O)[C@@H](NC(=O)[C@H](CCCNC(=N)N)NC(=O)[C@H](CCCCN)NC(=O)[C@H](CC(C)C)NC(=O)[C@H](CC(C)C)NC(=O)CNC(=O)CCC)[C@@H](C)CC)[C@@H](C)O)C(N)=O)[C@@H](C)O)[C@@H](C)CC | checkerboard | ATCC 700603 | added: polymyxin B | – | FIC index | 0.312
CC[C@@H](C)[C@@H](NC(=O)[C@@H](C)NC(=O)[C@H](NC(=O)[C@@H](CC(=O)O)NC(=O)[C@@H](CCCCN)NC(=O)[C@@H](CO)NC(=O)[C@H](NC(=O)[C@@H](CC(N)=O)NC(=O)[C@@H](C)NC(=O)[C@H](NC(=O)[C@@H](CCC(=O)O)NC(=O)[C@@H](CCCCN)NC(=O)[C@H](NC(=O)[C@H](NC(=O)[C@@H](Cc1c[nH]cn1)NC(=O)[C@@H](CCCCN)NC(=O)[C@H](NC(=O)[C@@H](CCCCN)NC(=O)[C@@H](CCCCN)NC(=O)[C@H](NC(=O)[C@@H](CC(C)C)NC(=O)[C@@H](CCCCN)NC(=O)[C@@H](CC(N)=O)NC(=O)[C@@H](Cc1ccccc1)NC(=O)[C@@H](CCCNC(=N)N)NC(=O)[C@@H](CCCCN)NC(=O)[C@@H](CCCNC(=N)N)NC(=O)[C@@H](Cc1ccccc1)NC(=O)CN)C(C)C)C(C)C)[C@H](C)O)[C@H](C)CC)[C@H](C)O)C(C)C)C(C)C)C(=O)N[C@@H](C(=O)N[C@H](C)C(=O)NCC(=O)N[C@H](CO)C(=O)NCC(=O)N[C@@H](C(=O)N[C@H](C)C(=O)N[C@@H](C(=O)NCC(=O)N[C@H](C)C(=O)N[C@H](C)C(=O)N[C@H](CCSC)C(N)=O)C(C)C)C(C)C)C(C)C | – | isolate RKI 19/16, CAMHB | – | – | MIC | 32 µg/mL
CCCCCC(=O)NCC(=O)N[C@@H](CC(C)C)C(=O)N[C@@H](CC(C)C)C(=O)N[C@@H](CCCCN)C(=O)N[C@@H](CCCNC(=N)N)C(=O)N[C@H](C(=O)N[C@@H](CCCCN)C(=O)N[C@H](C(=O)N[C@@H](CC(C)C)C(=O)N[C@@H](CC(C)C)C(=O)NCCCC[C@H](NC(=O)[C@H](CC(C)C)NC(=O)[C@H](CC(C)C)NC(=O)[C@@H](NC(=O)[C@H](CCCCN)NC(=O)[C@@H](NC(=O)[C@H](CCCNC(=N)N)NC(=O)[C@H](CCCCN)NC(=O)[C@H](CC(C)C)NC(=O)[C@H](CC(C)C)NC(=O)CNC(=O)CCCCC)[C@@H](C)CC)[C@@H](C)O)C(N)=O)[C@@H](C)O)[C@@H](C)CC | checkerboard | ATCC 700603 | added: gentamicin | – | FIC index | 0.375
COc1ccc2ccc3c(c2c1)C=[N+]1C2CCCCC2[N+]2=Cc4c(F)cccc4[O][Au-]21[O]3.F[P-](F)(F)(F)(F)F (stereo not shown) | bacterial growth, broth microdilution | carbapenem-resistant clinical isolate | 24 h | – | MIC | > 20 µM
CC[C@H](C)[C@H](NC(=O)[C@H](CCCNC(=N)N)NC(=O)[C@H](CCCCN)NC(=O)[C@H](CC(C)C)NC(=O)[C@H](CC(C)C)NC(=O)CN)C(=O)N[C@@H](CCCCN)C(=O)N[C@H](C(=O)N[C@@H](CC(C)C)C(=O)N[C@@H](CC(C)C)C(=O)NCCCC[C@H](NC(=O)[C@H](CCCCNC(=O)[C@H](CC(C)C)NC(=O)[C@H](CC(C)C)NC(=O)[C@@H](NC(=O)[C@H](CCCCN)NC(=O)[C@@H](NC(=O)[C@H](CCCNC(=N)N)NC(=O)[C@H](CCCCN)NC(=O)[C@H](CC(C)C)NC(=O)[C@H](CC(C)C)NC(=O)CN)[C@@H](C)CC)[C@@H](C)O)NC(=O)[C@H](CC(C)C)NC(=O)[C@H](CC(C)C)NC(=O)[C@@H](NC(=O)[C@H](CCCCN)NC(=O)[C@@H](NC(=O)[C@H](CCCNC(=N)N)NC(=O)[C@H](CCCCN)NC(=O)[C@H](CC(C)C)NC(=O)[C@H](CC(C)C)NC(=O)CN)[C@@H](C)CC)[C@@H](C)O)C(N)=O)[C@@H](C)O | checkerboard | ATCC 700603 | added: gentamicin | – | FIC index | 0.625
COc1ccc2c(c1)[O][Au-]13[O]c4ccc5ccc(OC)cc5c4C=[N+]1C1CCCCC1[N+]3=C2.F[P-](F)(F)(F)(F)F (stereo not shown) | bacterial growth, broth microdilution | carbapenem-resistant clinical isolate | 24 h | – | MIC | > 20 µM
CC[C@H](C)CCCCC(=O)N[C@@H](CCN)C(=O)N[C@H](C(=O)N[C@@H](CCN)C(=O)N[C@H]1CCNC(=O)[C@H]([C@@H](C)O)NC(=O)[C@H](CCN)NC(=O)[C@H](CCN)NC(=O)[C@H](CC(C)C)NC(=O)[C@@H](Cc2ccccc2)NC(=O)[C@H](CCN)NC1=O)[C@@H](C)O | – | NR-41920 | 2× and 5× MIC | – | time to kill | ≤ 2 h
CCCCCCCCCCCCCC(=O)N[C@H](CCN)C(=O)N[C@@H]1C(=O)N[C@@H](CCN)C(=O)N[C@@H](CC(C)C)C(=O)N[C@@H](CCN)C(=O)N[C@H](Cc2ccccc2)C(=O)N[C@@H](CC(C)C)C(=O)N[C@@H](CCN)C(=O)N[C@H](CCN)C(=O)N[C@@H](C(C)C)C(=O)N[C@@H](CC(=O)O)C(=O)O[C@@H]1C | – | BNCC 353393, XDR, colistin and carbapenem resistant, neutropenic mice, thigh infection | subcutaneous, 20 mg/kg once daily | relative to: vehicle | reduction in bacterial burden | 3.12 log10 CFU
COc1ccc2ccc3c(c2c1)C=[N+]1C2CCCCC2[N+]2=Cc4cccc(C)c4[O][Au-]21[O]3.F[P-](F)(F)(F)(F)F (stereo not shown) | bacterial growth, broth microdilution | carbapenem-resistant | 24 h | – | MIC | 20 µM
CCCC(=O)NCC(=O)N[C@@H](CC(C)C)C(=O)N[C@@H](CC(C)C)C(=O)N[C@@H](CCCCN)C(=O)N[C@@H](CCCNC(=N)N)C(=O)N[C@H](C(=O)N[C@@H](CCCCN)C(=O)N[C@H](C(=O)N[C@@H](CC(C)C)C(=O)N[C@@H](CC(C)C)C(=O)NCCCC[C@H](NC(=O)[C@H](CC(C)C)NC(=O)[C@H](CC(C)C)NC(=O)[C@@H](NC(=O)[C@H](CCCCN)NC(=O)[C@@H](NC(=O)[C@H](CCCNC(=N)N)NC(=O)[C@H](CCCCN)NC(=O)[C@H](CC(C)C)NC(=O)[C@H](CC(C)C)NC(=O)CNC(=O)CCC)[C@@H](C)CC)[C@@H](C)O)C(=O)NCCCC[C@H](NC(=O)[C@H](CCCCNC(=O)[C@H](CC(C)C)NC(=O)[C@H](CC(C)C)NC(=O)[C@@H](NC(=O)[C@H](CCCCN)NC(=O)[C@@H](NC(=O)[C@H](CCCNC(=N)N)NC(=O)[C@H](CCCCN)NC(=O)[C@H](CC(C)C)NC(=O)[C@H](CC(C)C)NC(=O)CNC(=O)CCC)[C@@H](C)CC)[C@@H](C)O)NC(=O)[C@H](CC(C)C)NC(=O)[C@H](CC(C)C)NC(=O)[C@@H](NC(=O)[C@H](CCCCN)NC(=O)[C@@H](NC(=O)[C@H](CCCNC(=N)N)NC(=O)[C@H](CCCCN)NC(=O)[C@H](CC(C)C)NC(=O)[C@H](CC(C)C)NC(=O)CNC(=O)CCC)[C@@H](C)CC)[C@@H](C)O)C(N)=O)[C@@H](C)O)[C@@H](C)CC | checkerboard | ATCC 700603 | added: rifampicin | – | FIC index | 0.25

Excerpt of the above:
SMILES | test | system | conditions | scale | measurement | result
CCCC(=O)NCC(=O)N[C@@H](CC(C)C)C(=O)N[C@@H](CC(C)C)C(=O)N[C@@H](CCCCN)C(=O)N[C@@H](CCCNC(=N)N)C(=O)N[C@H](C(=O)N[C@@H](CCCCN)C(=O)N[C@H](C(=O)N[C@@H](CC(C)C)C(=O)N[C@@H](CC(C)C)C(=O)NCCCC[C@H](NC(=O)[C@H](CC(C)C)NC(=O)[C@H](CC(C)C)NC(=O)[C@@H](NC(=O)[C@H](CCCCN)NC(=O)[C@@H](NC(=O)[C@H](CCCNC(=N)N)NC(=O)[C@H](CCCCN)NC(=O)[C@H](CC(C)C)NC(=O)[C@H](CC(C)C)NC(=O)CNC(=O)CCC)[C@@H](C)CC)[C@@H](C)O)C(N)=O)[C@@H](C)O)[C@@H](C)CC | checkerboard | ATCC 700603 | added: polymyxin B | – | FIC index | 0.312
